Earlier results as cited in several papers.
Compare with care: the assays were run in different laboratories. ± marks the error that the study gave.
Chain of UniProt P01024 (whole entry, unmodified, looked up): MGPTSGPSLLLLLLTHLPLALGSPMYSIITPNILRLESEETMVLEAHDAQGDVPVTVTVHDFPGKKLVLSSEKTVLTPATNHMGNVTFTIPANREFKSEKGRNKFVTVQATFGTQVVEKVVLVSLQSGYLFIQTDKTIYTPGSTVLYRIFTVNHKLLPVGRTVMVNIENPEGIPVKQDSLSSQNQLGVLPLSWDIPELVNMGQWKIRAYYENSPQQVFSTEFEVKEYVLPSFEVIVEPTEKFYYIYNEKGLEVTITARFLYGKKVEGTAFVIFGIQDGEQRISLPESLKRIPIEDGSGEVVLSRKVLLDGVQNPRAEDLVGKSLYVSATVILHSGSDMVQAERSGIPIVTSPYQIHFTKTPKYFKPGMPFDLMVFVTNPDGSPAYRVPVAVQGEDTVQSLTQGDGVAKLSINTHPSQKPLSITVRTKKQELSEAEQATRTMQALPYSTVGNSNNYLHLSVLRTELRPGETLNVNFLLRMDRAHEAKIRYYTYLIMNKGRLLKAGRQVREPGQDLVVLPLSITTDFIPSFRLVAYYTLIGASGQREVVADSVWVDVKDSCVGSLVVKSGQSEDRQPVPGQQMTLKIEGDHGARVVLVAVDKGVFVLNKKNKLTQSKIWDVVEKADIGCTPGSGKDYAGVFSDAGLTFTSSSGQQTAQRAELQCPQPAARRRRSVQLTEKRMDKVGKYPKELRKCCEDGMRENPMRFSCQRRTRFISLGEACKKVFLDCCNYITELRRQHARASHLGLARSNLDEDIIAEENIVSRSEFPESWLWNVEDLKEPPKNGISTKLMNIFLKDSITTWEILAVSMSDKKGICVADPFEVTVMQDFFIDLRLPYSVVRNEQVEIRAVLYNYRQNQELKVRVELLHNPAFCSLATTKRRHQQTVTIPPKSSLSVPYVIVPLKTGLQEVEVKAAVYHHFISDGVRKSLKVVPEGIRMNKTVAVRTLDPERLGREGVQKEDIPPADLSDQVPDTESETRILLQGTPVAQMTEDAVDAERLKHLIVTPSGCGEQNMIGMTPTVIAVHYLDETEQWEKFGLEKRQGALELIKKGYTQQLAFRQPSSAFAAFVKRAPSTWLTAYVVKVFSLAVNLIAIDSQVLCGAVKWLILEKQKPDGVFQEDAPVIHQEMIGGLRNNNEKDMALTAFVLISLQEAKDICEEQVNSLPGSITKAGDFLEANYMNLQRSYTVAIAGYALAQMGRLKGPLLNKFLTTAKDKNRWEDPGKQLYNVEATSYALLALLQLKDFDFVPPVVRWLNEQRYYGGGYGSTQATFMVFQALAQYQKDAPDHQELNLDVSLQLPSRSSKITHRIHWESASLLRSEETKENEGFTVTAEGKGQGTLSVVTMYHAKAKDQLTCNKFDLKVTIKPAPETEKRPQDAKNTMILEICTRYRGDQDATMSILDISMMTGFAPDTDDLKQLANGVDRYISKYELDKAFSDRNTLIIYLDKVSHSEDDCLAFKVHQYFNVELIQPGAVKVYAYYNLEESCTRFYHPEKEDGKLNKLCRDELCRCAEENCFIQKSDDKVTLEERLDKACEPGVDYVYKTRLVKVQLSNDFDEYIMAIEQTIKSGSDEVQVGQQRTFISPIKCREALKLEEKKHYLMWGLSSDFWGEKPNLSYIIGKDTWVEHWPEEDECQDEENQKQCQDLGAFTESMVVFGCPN
Chain of UniProt Q9UUB1 (whole entry, looked up): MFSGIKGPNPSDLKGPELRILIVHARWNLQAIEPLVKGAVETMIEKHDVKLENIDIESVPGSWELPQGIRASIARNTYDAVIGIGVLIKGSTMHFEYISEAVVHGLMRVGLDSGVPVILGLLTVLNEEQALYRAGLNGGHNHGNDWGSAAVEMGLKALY
Chain of UniProt Q9ULC6 (whole entry, looked up): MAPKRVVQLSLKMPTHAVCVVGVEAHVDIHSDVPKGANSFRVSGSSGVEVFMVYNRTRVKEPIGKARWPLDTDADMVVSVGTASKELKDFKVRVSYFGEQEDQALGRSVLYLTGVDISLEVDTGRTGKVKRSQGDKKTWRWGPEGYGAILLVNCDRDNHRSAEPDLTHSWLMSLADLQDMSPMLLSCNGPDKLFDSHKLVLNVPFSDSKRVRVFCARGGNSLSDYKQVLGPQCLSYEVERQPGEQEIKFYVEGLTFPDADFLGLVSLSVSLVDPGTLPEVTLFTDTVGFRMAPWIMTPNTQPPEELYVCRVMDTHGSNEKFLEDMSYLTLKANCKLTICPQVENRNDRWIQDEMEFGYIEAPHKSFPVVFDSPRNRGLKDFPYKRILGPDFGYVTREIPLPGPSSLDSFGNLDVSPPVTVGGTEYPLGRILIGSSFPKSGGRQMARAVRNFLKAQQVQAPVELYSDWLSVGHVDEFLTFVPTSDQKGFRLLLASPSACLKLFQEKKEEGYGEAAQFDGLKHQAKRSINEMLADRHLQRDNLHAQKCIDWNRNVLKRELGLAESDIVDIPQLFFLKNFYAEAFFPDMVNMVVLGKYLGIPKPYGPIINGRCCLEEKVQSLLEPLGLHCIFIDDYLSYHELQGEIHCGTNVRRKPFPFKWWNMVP
Chain of UniProt P63079 (whole entry, looked up): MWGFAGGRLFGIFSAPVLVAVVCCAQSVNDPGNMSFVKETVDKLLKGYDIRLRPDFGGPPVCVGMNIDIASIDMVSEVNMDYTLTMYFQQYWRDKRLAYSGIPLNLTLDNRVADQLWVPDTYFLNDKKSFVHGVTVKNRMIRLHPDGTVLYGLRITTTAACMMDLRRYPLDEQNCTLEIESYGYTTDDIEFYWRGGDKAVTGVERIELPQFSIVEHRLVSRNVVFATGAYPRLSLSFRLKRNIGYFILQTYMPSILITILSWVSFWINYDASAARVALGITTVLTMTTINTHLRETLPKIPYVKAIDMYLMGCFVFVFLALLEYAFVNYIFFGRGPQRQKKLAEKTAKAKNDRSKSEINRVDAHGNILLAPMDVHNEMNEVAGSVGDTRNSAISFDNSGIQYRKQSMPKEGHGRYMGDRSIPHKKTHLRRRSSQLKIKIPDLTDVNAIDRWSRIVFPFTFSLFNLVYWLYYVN
Chain of UniProt Q16819 (whole entry, looked up): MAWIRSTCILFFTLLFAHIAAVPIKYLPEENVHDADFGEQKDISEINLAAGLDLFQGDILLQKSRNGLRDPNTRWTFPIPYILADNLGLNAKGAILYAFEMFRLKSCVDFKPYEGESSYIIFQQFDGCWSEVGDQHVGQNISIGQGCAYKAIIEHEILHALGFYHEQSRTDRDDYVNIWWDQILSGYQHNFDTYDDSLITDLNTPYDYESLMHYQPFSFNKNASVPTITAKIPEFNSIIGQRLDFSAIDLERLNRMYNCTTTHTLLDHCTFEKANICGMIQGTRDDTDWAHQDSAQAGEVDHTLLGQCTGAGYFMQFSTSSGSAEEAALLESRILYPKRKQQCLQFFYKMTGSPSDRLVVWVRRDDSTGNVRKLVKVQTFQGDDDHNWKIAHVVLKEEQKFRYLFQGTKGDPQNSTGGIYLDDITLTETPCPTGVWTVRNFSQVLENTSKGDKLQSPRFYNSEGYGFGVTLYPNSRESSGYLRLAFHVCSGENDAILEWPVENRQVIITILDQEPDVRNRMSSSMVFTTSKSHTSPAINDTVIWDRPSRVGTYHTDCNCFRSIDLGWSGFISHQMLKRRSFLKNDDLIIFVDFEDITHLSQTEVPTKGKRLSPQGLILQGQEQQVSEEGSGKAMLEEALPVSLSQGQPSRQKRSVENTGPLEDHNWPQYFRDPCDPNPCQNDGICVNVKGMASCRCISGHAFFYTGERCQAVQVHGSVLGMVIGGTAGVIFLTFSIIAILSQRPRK
Chain of UniProt P30191 (whole entry, looked up): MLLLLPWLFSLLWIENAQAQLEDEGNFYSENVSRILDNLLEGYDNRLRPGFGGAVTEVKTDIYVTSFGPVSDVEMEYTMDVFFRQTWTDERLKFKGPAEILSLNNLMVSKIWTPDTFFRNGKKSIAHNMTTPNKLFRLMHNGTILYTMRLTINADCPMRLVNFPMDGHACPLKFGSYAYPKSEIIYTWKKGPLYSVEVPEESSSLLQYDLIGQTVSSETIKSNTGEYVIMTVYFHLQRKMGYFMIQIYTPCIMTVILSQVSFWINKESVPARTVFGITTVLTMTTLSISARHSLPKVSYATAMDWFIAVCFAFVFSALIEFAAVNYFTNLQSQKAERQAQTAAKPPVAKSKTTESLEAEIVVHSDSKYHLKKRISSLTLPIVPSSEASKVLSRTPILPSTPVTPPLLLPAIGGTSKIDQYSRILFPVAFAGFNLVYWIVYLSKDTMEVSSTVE
Chain of UniProt P51692 (whole entry, looked up): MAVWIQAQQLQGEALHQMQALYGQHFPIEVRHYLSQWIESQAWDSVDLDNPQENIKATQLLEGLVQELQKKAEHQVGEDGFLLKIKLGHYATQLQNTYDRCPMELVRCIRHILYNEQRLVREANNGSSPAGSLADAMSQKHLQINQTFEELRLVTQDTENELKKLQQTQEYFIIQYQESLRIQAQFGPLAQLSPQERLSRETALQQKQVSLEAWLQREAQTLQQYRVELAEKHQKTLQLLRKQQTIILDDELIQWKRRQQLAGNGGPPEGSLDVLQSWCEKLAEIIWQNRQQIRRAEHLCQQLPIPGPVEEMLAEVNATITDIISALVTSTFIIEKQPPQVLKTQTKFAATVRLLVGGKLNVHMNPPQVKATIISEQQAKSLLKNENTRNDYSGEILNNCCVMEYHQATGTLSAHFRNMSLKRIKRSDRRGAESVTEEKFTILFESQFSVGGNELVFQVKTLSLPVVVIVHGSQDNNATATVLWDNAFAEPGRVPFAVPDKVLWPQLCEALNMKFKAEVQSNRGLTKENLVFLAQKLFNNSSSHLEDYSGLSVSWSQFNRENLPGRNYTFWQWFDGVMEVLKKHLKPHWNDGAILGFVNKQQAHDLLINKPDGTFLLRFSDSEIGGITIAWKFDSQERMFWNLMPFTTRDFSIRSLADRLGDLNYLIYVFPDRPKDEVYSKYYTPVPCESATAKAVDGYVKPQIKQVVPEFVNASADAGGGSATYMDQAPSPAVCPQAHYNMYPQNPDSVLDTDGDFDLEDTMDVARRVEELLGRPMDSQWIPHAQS

Structure (SMILES) | target | assay | test system | conditions | scale | measurement | value
OC[C@H]1O[C@@H](OCc2cn([C@H]3[C@H](O)[C@@H](O)[C@H](c4cn([C@H]5[C@H](O)[C@@H](O)[C@H](n6cc([C@@H]7O[C@H](CO)[C@@H](n8cc(CO[C@@H]9O[C@H](CO)[C@H](O)[C@H](O)[C@H]9O)nn8)[C@H](O)[C@H]7O)nn6)O[C@@H]5CO)nn4)O[C@@H]3CO)nn2)[C@H](O)[C@@H](O)[C@H]1O | PA-I galactophilic lectin (lecA, Pseudomonas aeruginosa, UniProt Q05097) | ITC | – | – | – | –TΔS | 1.3 kcal/mol
CC(=O)N[C@H]1[C@@H](O)[C@H](O)[C@@H](CO)O[C@H]1O | N-acetylmannosamine kinase (human) | substrate | – | – | – | Km | 95 µM
N=C(CF)NCCC[C@H](NC(=O)c1ccc(-c2ccccc2)cc1)c1nc2ccccc2[nH]1 | Protein-arginine deiminase type-1 (PADI1, Homo sapiens, UniProt Q9ULC6) | inhibitor | – | – | – | kinact/KI | 15 M⁻¹ s⁻¹
O=C(CCN(Cc1ccccc1)Cc1ccccc1)NO | Meprin A subunit alpha (MEP1A, Homo sapiens, UniProt Q16819) | – | – | – | relative to: meprin β Ki over meprin α Ki | selectivity ratio | 45
CC(=O)c1cc(OCc2cccc(Br)c2)ccc1O | Amine oxidase [flavin-containing] B (MAOB, Homo sapiens, UniProt P27338) | – | – | – | relative to: IC50 MAO-A over IC50 MAO-B | selectivity ratio | 34
C[C@H](NC(=O)[C@@H]1CCCN1C(=O)[C@@H]1CCCN1C(=O)[C@H](C)NC(=O)[C@@H](NC(=O)[C@H](CO)NC(=O)CNC(=O)[C@@H]1CCCN1C(=O)[C@H](C)NC(=O)[C@@H]1CCCN1C(=O)[C@@H](N)CCCNC(=N)N)[C@@H](C)O)C(=O)N[C@@H](Cc1c[nH]cn1)C(=O)NCC(=O)O | 14 A monoclonal antibody | SPR | – | – | – | koff | 0.00285 s⁻¹
C=CC(=O)N1CCC[C@@H](n2nc(-c3cccc4ccccc34)c3c(N)ncnc32)C1 | Epidermal growth factor receptor (EGFR, Homo sapiens, UniProt P00533) | – | – | – | – | kinact/Ki | 50000 ± 40000 M⁻¹ s⁻¹
CC(C)C(=O)Nc1c(NC[C@H](O)[C@H](O)[C@H](O)CO)[nH]c(=O)[nH]c1=O | 6,7-dimethyl-8-ribityllumazine synthase (ribH, Mycobacterium tuberculosis, UniProt P9WHE9) | enzyme kinetics | – | pH 7.0, together with: substrate 2 fixed, 1 varied | lower = tighter substrate binding | Ks | 63 ± 8 µM
C=CC(=O)N1CCC[C@@H](n2nc(-c3ccc4ccccc4c3)c3c(N)ncnc32)C1 | Epidermal growth factor receptor (EGFR, Homo sapiens, UniProt P00533, L858R/T790M) | – | – | – | – | kinact/Ki | 3.42e+06 ± 1.44e+06 M⁻¹ s⁻¹
Nc1c2ncn3c2nc[n+]1[C@@H]1O[C@H](COP(=O)(O)OP(=O)([O-])OC[C@H]2O[C@@H]3[C@H](O)[C@@H]2OP(=O)(O)O)[C@@H](O)[C@H]1O | cADPR receptor, sea urchin | – | sea urchin egg homogenate | concentration not given | – | activity | inactive
CO[C@@H]1[C@H](O)[C@@H](COP(=O)([O-])OP(=O)(O)CP(=O)(O)OP(=O)(O)OC[C@H]2O[C@@H](n3cnc4c(=O)[nH]c(N)nc43)[C@H](O)[C@@H]2O)O[C@H]1n1c[n+](C)c2c(O)nc(N)nc21 | Eukaryotic translation initiation factor 4E, residues 28-217 (Eif4e, Mus musculus, UniProt P63073) | binding, fluorescence quenching titration | – | pH 7.2 | – | association constant | 44 µM⁻¹
Cc1cc(C)c(S(=O)(=O)N(C)CC(=O)N(Cc2ccc(C3CCCCC3)cc2)c2ccc(C(=O)O)c(O)c2)c(C)c1 | Signal transducer and activator of transcription 5B, SH2 domain (STAT5B, Homo sapiens, UniProt P51692) | fluorescence polarization | – | – | relative to: STAT5B over STAT3 | selectivity ratio | 2 to 3 fold
CCOC(=O)C(=O)Nc1c(NC[C@H](O)[C@H](O)[C@H](O)CO)[nH]c(=O)[nH]c1=O | 6,7-dimethyl-8-ribityllumazine synthase (rib4, Schizosaccharomyces pombe, UniProt Q9UUB1) | – | – | pH 7.0 | – | Ki (uncompetitive, ESI) | 15 ± 3 µM
CC[C@H](C)[C@H](NC(C)=O)C(=O)N[C@H]1CSSC[C@@H](C(=O)N[C@H](C(N)=O)[C@@H](C)O)NC(=O)[C@H](CCCNC(=N)N)NC(=O)[C@H](Cc2c[nH]cn2)NC(=O)[C@H](C)NC(=O)CNC(=O)[C@H](Cc2c[nH]c3ccccc23)NC(=O)[C@H](CC(=O)O)NC(=O)[C@H](CCC(N)=O)NC(=O)[C@H](Cc2ccc3ccccc3c2)NC(=O)[C@H](C(C)C)NC1=O | Complement C3 (Homo sapiens, UniProt P01024) | binding, ITC | – | – | – | −TΔS | 4.8 kcal/mol
COc1ccc(-n2nc3c4cc(Cl)ccc4[nH]cc-3c2=O)cc1 | Gamma-aminobutyric acid receptor subunit alpha-6/beta-3, with gamma-2 subunit (Gabra6/Gabrb3, Rattus norvegicus, UniProt P30191+P63079) | ion current, modulator | – | α6β3γ2, together with: GABA EC3-5 | – | maximum modulation | ~2000%
CCOC(=O)C(C)NC(=O)CN1C(=O)N/C(=C\c2ccc(C)cc2)C1=O (stereo not shown) | α-glucosidase | enzyme activity | – | 200 µM | – | inhibition | 44.6 ± 0.99%

Repeated from above:
Structure (SMILES) | target | assay | test system | conditions | scale | measurement | value
Nc1c2ncn3c2nc[n+]1[C@@H]1O[C@H](COP(=O)(O)OP(=O)([O-])OC[C@H]2O[C@@H]3[C@H](O)[C@@H]2OP(=O)(O)O)[C@@H](O)[C@H]1O | cADPR receptor, sea urchin | – | sea urchin egg homogenate | concentration not given | – | activity | inactive
CO[C@@H]1[C@H](O)[C@@H](COP(=O)([O-])OP(=O)(O)CP(=O)(O)OP(=O)(O)OC[C@H]2O[C@@H](n3cnc4c(=O)[nH]c(N)nc43)[C@H](O)[C@@H]2O)O[C@H]1n1c[n+](C)c2c(O)nc(N)nc21 | Eukaryotic translation initiation factor 4E, residues 28-217 (Eif4e, Mus musculus, UniProt P63073) | binding, fluorescence quenching titration | – | pH 7.2 | – | association constant | 44 µM⁻¹
